Results gathered from unrelated publications.
Each numbered part is a random draw from the data of one study; scales do not carry over between parts.
Sequence of UniProt P10721 (whole entry, unmodified, looked up): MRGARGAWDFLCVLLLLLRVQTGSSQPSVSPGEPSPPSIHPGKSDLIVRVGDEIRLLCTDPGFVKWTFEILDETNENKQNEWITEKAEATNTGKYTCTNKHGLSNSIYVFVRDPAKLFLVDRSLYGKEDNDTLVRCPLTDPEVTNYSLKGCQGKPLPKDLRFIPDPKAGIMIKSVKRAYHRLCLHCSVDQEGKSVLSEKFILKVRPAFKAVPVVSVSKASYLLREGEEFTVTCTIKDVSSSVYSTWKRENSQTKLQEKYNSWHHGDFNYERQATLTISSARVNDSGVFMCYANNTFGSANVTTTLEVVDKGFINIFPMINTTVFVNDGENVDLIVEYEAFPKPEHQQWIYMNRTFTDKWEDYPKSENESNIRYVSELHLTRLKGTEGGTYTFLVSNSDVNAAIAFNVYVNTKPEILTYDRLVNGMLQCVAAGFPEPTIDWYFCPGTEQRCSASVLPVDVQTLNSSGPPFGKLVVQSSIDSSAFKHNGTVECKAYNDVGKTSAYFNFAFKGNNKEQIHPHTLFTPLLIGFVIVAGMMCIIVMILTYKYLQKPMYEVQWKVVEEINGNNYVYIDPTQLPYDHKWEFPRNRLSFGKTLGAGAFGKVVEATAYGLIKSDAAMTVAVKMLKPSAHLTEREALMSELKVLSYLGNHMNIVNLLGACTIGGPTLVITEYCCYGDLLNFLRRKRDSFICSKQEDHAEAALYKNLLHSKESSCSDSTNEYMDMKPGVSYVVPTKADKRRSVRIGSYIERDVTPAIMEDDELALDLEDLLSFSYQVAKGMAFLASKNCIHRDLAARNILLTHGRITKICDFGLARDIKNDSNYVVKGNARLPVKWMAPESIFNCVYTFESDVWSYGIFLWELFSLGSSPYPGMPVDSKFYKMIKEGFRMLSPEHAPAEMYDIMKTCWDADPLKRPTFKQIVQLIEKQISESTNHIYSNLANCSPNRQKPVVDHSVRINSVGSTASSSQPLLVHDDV
Sequence of UniProt Q13557 (whole entry, looked up): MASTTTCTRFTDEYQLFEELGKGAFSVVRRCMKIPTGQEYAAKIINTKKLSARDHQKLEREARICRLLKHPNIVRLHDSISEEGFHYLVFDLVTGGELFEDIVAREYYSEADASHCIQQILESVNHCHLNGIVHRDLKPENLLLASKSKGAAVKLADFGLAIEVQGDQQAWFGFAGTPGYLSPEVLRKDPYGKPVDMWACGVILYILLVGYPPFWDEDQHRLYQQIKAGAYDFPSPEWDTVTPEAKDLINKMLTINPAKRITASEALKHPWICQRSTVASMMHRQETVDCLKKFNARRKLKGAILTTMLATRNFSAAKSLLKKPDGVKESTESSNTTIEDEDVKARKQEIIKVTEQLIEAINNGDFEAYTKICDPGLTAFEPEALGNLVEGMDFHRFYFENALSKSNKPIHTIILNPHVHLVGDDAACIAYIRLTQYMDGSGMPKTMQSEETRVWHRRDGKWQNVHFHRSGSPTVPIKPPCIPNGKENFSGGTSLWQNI
Sequence of UniProt P45984 (whole entry, looked up): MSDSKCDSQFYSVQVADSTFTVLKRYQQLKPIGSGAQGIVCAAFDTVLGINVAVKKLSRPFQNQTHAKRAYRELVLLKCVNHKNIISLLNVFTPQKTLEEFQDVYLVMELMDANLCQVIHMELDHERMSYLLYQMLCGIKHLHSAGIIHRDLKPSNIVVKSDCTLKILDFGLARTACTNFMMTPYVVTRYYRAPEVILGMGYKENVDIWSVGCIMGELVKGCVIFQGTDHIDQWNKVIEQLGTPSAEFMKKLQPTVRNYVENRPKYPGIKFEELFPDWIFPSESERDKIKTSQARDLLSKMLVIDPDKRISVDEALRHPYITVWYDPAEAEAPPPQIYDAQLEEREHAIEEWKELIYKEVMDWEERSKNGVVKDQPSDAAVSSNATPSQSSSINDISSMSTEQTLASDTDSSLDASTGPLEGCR
Sequence of UniProt Q13177 (whole entry, looked up): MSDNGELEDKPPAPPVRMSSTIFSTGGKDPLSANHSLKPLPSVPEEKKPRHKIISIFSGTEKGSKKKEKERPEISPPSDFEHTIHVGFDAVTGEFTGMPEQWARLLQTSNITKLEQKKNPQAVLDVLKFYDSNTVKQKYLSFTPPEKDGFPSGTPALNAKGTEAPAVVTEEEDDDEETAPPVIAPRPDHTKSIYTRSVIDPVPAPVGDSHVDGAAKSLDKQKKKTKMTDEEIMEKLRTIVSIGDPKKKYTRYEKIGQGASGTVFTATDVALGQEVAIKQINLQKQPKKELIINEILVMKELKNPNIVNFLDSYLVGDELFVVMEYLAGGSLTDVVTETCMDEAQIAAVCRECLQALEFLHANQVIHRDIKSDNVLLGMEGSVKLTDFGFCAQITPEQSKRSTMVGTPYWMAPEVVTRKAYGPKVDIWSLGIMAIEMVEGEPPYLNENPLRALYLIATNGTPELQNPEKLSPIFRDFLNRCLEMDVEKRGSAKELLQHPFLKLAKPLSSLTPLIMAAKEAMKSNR
Sequence of UniProt Q16620 (whole entry, looked up): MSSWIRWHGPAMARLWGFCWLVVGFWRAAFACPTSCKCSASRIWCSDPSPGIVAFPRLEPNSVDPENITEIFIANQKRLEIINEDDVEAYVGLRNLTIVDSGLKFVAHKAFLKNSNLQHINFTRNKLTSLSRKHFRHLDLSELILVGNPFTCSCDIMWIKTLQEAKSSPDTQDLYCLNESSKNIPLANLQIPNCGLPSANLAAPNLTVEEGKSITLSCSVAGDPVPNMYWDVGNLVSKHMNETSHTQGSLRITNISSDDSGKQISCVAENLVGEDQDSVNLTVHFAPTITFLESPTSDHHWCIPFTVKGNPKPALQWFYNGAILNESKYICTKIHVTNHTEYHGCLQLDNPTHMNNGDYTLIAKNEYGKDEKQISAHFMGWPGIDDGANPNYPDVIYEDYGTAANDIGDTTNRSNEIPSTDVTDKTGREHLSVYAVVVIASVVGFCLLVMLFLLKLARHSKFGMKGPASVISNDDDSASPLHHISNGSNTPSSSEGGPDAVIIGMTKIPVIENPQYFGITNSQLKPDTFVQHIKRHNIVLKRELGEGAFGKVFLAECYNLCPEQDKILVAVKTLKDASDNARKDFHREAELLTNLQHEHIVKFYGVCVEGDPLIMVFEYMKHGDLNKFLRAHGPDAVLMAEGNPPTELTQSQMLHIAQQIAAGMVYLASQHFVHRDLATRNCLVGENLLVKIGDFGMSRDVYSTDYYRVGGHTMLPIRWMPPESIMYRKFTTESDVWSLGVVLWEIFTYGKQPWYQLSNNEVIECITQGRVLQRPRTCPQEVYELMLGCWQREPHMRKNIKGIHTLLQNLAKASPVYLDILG
Sequence of UniProt Q9HAZ1 (whole entry, looked up): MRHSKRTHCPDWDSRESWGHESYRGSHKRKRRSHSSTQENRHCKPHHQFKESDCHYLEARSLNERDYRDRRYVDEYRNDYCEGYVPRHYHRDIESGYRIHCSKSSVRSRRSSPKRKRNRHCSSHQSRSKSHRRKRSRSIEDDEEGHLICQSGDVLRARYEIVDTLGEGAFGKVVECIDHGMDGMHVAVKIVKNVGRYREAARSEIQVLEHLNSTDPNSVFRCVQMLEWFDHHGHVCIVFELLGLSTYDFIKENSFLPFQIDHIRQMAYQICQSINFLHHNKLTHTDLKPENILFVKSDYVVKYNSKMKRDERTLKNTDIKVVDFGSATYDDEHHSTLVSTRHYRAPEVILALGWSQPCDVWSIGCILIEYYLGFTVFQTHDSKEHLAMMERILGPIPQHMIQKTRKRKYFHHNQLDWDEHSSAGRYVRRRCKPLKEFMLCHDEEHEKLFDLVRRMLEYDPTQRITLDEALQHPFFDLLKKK

Study 1 — host: mouse; medium: microsomes or S9; concentration: 2 µM; time: 0.5 h
With CCCc1cc(-n2ccnc2C)n2nc3nc(C)cc(C)c3c2n1 the remaining compound was 39.5%.
With O=C(CCS(=O)(=O)c1ccccc1)N(Cc1ccccc1)c1nc2ccccc2s1 the remaining compound was 4.15%.
With CC(=O)Nc1ccc(Cl)c(C(=O)N(C)C(CO)C(C)(C)C)c1 (stereo not shown) the remaining compound was 39.6%.
The remaining compound of O=C1COc2ccc(Cl)cc2CN1Cc1cc(F)cc(F)c1 is reported as 14.7%.
With COc1cc(=O)[nH]cc1C(=O)N1CCOCC1c1ccc(F)cc1 (stereo not shown) the remaining compound was 71.8%.
CCc1nc(-n2nc(C)cc2C)c2cc(C)sc2n1 gave a remaining compound of 30%.
CC1(C)CC(=O)c2c(O)cc(OCC(=O)NCC3CCC(C(=O)O)CC3)cc2O1 (stereo not shown) has a remaining compound of greater than 100%.
Cc1nc(C2=C(N)N(C3CS(=O)(=O)CC3O)CC2=O)sc1C (stereo not shown) has a remaining compound of 84.2%.
For CCOc1cc(=O)n2c(c1C(=O)Nc1cc(Cl)c(OC)cc1OC)CCCC2, the remaining compound was 87.4%.
The remaining compound of NC(=O)[C@@H]1C[C@@H](F)CN1Cc1cc2c(cc1Br)OCO2 is reported as 0.102%.

Study 2 — mode: inhibitor
SMILES: Cc1nc(Nc2ncc(C(=O)Nc3c(C)cccc3Cl)s2)cc(N2CCN(CCO)CC2)n1
Ephrin type-A receptor 4 (EPHA4, Homo sapiens, UniProt P54764); 10 µM — inhibition: 100%.
Tyrosine-protein kinase Fgr (FGR, Homo sapiens, UniProt P09769); 10 µM — inhibition: 100%.
For Serine/threonine-protein kinase 36 (STK36, Homo sapiens, UniProt Q9NRP7); 10 µM: inhibition read 100%.
For Mitogen-activated protein kinase 9 (MAPK9, Homo sapiens, UniProt P45984); 10 µM: inhibition read less than 50%.
The inhibition was less than 50% (Calcium/calmodulin-dependent protein kinase type II subunit delta (CAMK2D, Homo sapiens, UniProt Q13557); 10 µM).
It gave less than 50% for inhibition (Mitogen-activated protein kinase 8 (MAPK8, Homo sapiens, UniProt P45983); 1 µM).

Study 3 — effect on: enzyme activity; mode: inhibitor; concentration: 0.5 µM; reference: control
Target: PAS domain-containing serine/threonine-protein kinase (PASK, Homo sapiens, UniProt Q96RG2)
Sequence of UniProt Q96RG2 (whole entry, looked up): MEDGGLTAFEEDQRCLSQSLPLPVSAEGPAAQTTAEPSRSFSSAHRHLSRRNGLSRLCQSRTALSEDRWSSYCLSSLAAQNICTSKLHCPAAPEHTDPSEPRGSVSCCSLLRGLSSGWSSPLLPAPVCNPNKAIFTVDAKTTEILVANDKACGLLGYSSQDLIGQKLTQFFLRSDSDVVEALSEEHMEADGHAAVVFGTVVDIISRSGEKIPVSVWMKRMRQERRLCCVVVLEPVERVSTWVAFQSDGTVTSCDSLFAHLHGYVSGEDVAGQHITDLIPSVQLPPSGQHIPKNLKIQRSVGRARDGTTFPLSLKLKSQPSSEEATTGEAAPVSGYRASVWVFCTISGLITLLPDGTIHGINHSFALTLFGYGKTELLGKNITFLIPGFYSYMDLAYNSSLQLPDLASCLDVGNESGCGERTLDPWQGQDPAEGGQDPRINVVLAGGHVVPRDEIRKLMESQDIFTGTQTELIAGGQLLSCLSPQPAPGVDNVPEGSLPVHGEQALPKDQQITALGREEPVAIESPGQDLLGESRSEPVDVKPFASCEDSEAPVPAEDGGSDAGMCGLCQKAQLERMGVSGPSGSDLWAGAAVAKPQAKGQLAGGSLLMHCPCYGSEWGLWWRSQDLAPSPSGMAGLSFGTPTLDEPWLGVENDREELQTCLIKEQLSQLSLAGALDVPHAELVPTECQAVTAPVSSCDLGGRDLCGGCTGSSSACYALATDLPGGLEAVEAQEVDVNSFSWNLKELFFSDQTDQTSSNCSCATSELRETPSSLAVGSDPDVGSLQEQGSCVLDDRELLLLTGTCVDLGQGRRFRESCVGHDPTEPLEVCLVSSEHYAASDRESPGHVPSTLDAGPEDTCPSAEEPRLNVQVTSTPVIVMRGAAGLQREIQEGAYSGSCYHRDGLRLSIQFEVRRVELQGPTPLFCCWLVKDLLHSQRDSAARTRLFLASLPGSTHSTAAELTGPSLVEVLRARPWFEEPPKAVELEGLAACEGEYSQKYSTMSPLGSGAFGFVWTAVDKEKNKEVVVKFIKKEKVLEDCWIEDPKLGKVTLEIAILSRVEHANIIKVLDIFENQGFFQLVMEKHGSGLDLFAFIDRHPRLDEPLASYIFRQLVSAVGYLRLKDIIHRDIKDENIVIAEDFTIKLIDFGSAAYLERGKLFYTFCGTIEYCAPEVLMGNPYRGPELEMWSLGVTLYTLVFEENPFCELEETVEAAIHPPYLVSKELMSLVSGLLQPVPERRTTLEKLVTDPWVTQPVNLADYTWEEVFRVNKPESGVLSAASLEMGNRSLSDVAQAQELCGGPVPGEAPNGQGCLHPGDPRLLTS
With COc1cc2ncnc(Nc3ccc(O)c(Br)c3)c2cc1OC the remaining activity was 57.9%.
With O=c1cc(-c2cccc3c2Sc2ccccc2S3)oc(N2CCOCC2)c1 the remaining activity was 101%.
The remaining activity of COc1cc2c(cc1OC)-c1[nH]nc(Nc3cccc(F)c3)c1C2 is reported as 93.3%.
With COc1cc2ncnc(Nc3cccc(Cl)c3)c2cc1OC the remaining activity was 90.2%.
c1ccc(-c2cnc(Nc3ccc(OCCN4CCCC4)cc3)s2)cc1 gave a remaining activity of 96.4%.
The remaining activity of O=C(Nc1cccc(Nc2nccc(Nc3cccc(C(F)(F)F)c3)n2)c1)C1CC1 is reported as 106%.
The remaining activity of N#C/C(=C\c1ccc(O)c(O)c1)C(=O)NCc1ccccc1 is reported as 95.1%.
C[C@@H]1CCN(C(=O)CC#N)C[C@@H]1N(C)c1ncnc2[nH]ccc12 gave a remaining activity of 105%.
CCN(CC)C(=O)c1ccc(Nc2nc(OCC3CCCCC3)c3[nH]cnc3n2)cc1 has a remaining activity of 103%.
Cn1nc2c3c(cccc31)C(=O)c1ccccc1-2 gave a remaining activity of 94.6%.
The remaining activity of CCOc1nc(NC(=O)Cc2cc(OC)ccc2OC)cc(N)c1C#N is reported as 91.1%.
With CN([C@@H](Cc1ccc(OS(=O)(=O)c2cccc3cnccc23)cc1)C(=O)N1CCN(c2ccccc2)CC1)S(=O)(=O)c1cccc2cnccc12 the remaining activity was 103%.
Cc1cn(-c2cc(NC(=O)c3ccc(C)c(Nc4nccc(-c5cccnc5)n4)c3)cc(C(F)(F)F)c2)cn1 gave a remaining activity of 102%.
For O=C(NC(NC(=S)Nc1ccc(F)c([N+](=O)[O-])c1)C(Cl)(Cl)Cl)C(c1ccccc1)c1ccccc1 (stereo not shown), the remaining activity was 104%.
With Ic1cccc(CSc2nnc(-c3ccncc3)o2)c1 the remaining activity was 100%.
The remaining activity of Cc1nc2cc3nc(-c4cccs4)cnc3cc2n1C is reported as 110%.
With CCN(CC)CCNC(=O)c1c(C)[nH]c(/C=C2\C(=O)Nc3ccc(Cl)cc32)c1C the remaining activity was 89.6%.
The remaining activity of O=C1C(Cl)=C(N2C(=O)CCC2=O)C(=O)c2ccccc21 is reported as 103%.
CN(C)C[C@H]1CCn2c(c(C3=C(c4cn(C)c5ccccc45)C(=O)NC3=O)c3ccccc32)C1 gave a remaining activity of 93%.
c1ccc(-c2[nH]ncc2-c2ccnc3ccccc23)nc1 gave a remaining activity of 77.1%.
Cc1cc2ncc(-c3ccccc3)nc2cc1C has a remaining activity of 82.1%.
N#Cc1c(NC(=O)c2cccc3ccccc23)sc2c1CCCC2 has a remaining activity of 98.3%.
O=C1c2ccccc2-c2n[nH]c3cccc1c23 gave a remaining activity of 92.2%.
With CCN(CC)CCNC(=O)c1c(C)[nH]c(/C=C2\C(=O)Nc3ccc(F)cc32)c1C the remaining activity was 102%.
With Nc1cccc(-c2cc3c(Oc4cccc(O)c4)ncnc3[nH]2)c1 the remaining activity was 96.2%.

Study 4 — effect on: cell-free assay; technique: competition with immobilised ligand; concentration: 1 µM
Structure (SMILES): Cc1nc(C2CCN(C(=O)c3ccc(OC(F)(F)F)cc3N)CC2)c2ncc(N3CCN(C)CC3)cc2n1
Dual specificity protein kinase CLK4 (CLK4, Homo sapiens, UniProt Q9HAZ1) — remaining binding: 97%.
The remaining binding was 100% (Citron Rho-interacting kinase (CIT, Homo sapiens, UniProt O14578)).
The remaining binding was 98% (Serine/threonine-protein kinase DCLK3 (DCLK3, Homo sapiens, UniProt Q9C098)).
It gave 100% for remaining binding (Serine/threonine-protein kinase NLK (NLK, Homo sapiens, UniProt Q9UBE8)).
It gave 100% for remaining binding (BDNF/NT-3 growth factors receptor (NTRK2, Homo sapiens, UniProt Q16620)).
The remaining binding was 100% (Mitogen-activated protein kinase kinase kinase 14 (MAP3K14, Homo sapiens, UniProt Q99558)).
Activated CDC42 kinase 1 (TNK2, Homo sapiens, UniProt Q07912) — remaining binding: 100%.
Mitogen-activated protein kinase kinase kinase 11 (MAP3K11, Homo sapiens, UniProt Q16584) — remaining binding: 100%.
Cyclin-dependent kinase-like 5 (CDKL5, Homo sapiens, UniProt O76039) — remaining binding: 89%.
For Homeodomain-interacting protein kinase 1 (HIPK1, Homo sapiens, UniProt Q86Z02): remaining binding read 100%.
It gave 100% for remaining binding (Ribosomal protein S6 kinase alpha-2, C-terminal kinase domain (RPS6KA2, Homo sapiens, UniProt Q15349)).
The remaining binding was 64% (Serine/threonine-protein kinase PAK 2 (PAK2, Homo sapiens, UniProt Q13177)).
It gave 100% for remaining binding (Tyrosine-protein kinase ABL1, phosphorylated (ABL1, Homo sapiens, UniProt P00519, M351T)).
It gave 77% for remaining binding (RAF proto-oncogene serine/threonine-protein kinase (RAF1, Homo sapiens, UniProt P04049)).
The remaining binding was 86% (Phosphatidylinositol 4-phosphate 3-kinase C2 domain-containing subunit beta (PIK3C2B, Homo sapiens, UniProt O00750)).
Cytoplasmic tyrosine-protein kinase BMX (BMX, Homo sapiens, UniProt P51813) — remaining binding: 100%.
The remaining binding was 100% (Mast/stem cell growth factor receptor Kit (KIT, Homo sapiens, UniProt P10721, V559D/V654A)).
Ribosomal protein S6 kinase alpha-3, N-terminal kinase domain (RPS6KA3, Homo sapiens, UniProt P51812) — remaining binding: 100%.
For Dual specificity tyrosine-phosphorylation-regulated kinase 1A (DYRK1A, Homo sapiens, UniProt Q13627): remaining binding read 100%.
For Phosphatidylinositol 4,5-bisphosphate 3-kinase catalytic subunit delta isoform (PIK3CD, Homo sapiens, UniProt O00329): remaining binding read 78%.
TRAF2 and NCK-interacting protein kinase (TNIK, Homo sapiens, UniProt Q9UKE5) — remaining binding: 100%.
For Mast/stem cell growth factor receptor Kit (KIT, Homo sapiens, UniProt P10721, A829P): remaining binding read 86%.
The remaining binding was 90% (Mast/stem cell growth factor receptor Kit (KIT, Homo sapiens, UniProt P10721)).

Some of these lines once more (study 3):
With COc1cc2ncnc(Nc3ccc(O)c(Br)c3)c2cc1OC the remaining activity was 57.9%.
The remaining activity of N#C/C(=C\c1ccc(O)c(O)c1)C(=O)NCc1ccccc1 is reported as 95.1%.
The remaining activity of Cc1nc2cc3nc(-c4cccs4)cnc3cc2n1C is reported as 110%.
For O=C(NC(NC(=S)Nc1ccc(F)c([N+](=O)[O-])c1)C(Cl)(Cl)Cl)C(c1ccccc1)c1ccccc1 (stereo not shown), the remaining activity was 104%.
With COc1cc2ncnc(Nc3cccc(Cl)c3)c2cc1OC the remaining activity was 90.2%.
